Published values collected from several papers.
Parts stem from different laboratories: compare values within a part only.

Block 1
Target: RING finger protein unkempt homolog, zinc fingers 1-6, GST-SBP tag (UNK, Homo sapiens, UniProt Q9C0B0, residues 30-357)
Method: RNA Bind-n-Seq
Form: RNA
Sample: in vitro
Tested at: not given
Setting: RNA with constant flanks, ends assumed
Reference: input RNA pool
Direction: higher = stronger binding
Shared flanks, not repeated: GGGAGUUCUACAGUCCGACGAUC … CAACAGAGGAUUGAGCAUCA
Target sequence (chain): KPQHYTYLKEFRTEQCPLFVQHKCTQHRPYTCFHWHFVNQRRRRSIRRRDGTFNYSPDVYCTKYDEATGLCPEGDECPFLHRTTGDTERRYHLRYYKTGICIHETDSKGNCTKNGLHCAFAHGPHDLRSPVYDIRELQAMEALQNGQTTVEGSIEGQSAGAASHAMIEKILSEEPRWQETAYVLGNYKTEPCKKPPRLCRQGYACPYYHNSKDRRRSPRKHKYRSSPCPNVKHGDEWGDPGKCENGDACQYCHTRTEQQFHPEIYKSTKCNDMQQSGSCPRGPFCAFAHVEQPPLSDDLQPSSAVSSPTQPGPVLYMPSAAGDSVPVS
| Strand | bound/input enrichment |
| --- | --- |
| GCAGUUCGCAGAACAGAAACUGGACGCAUCGGAUUAGAAGGCUGCCUUUGUCAAGACUUUUACCGGAUACGAGACCUUUUAUAUGAACAGUAUGCCAUUGUGUAAAGGACAUGAUGUCAA | 0.109 ratio |
| AGUUUAAUGUAUAAAGAUCCUCUAGAAAAUGAUAAUAUUGUGUAUUAAGACAUUCCUUAAUCCGGACAAAAUGGCUGCUGUAUAUUUACUAUAUGGAGUUCUGAGUUAAAUACCAUCCUU | 1.2 ratio |
| AGAUUAGGCCAUGAUCCCUACAGACUAACUCCUGAUCCCUAUAGGAUGUCACCUAGACCCUACAGGACCGCACCCAGGUCCUAUAGAAUAGCACCCAGGCCAUAUAGGUUAGCACCUAGA | 3.02 ratio |
| GUUAAGAGAAGACUAUGGAGCUGUACGAGUCAACGUAUUUUGUUGUCCUCAUCCCUUCAGCCGUUAUUACCGUCAUUUUCCUUUUCUUCUGGCUUUUCAUGAAAGAAACAUUAUAUGAUG | 0.298 ratio |
| CAGAGAGCUUGACCAAGUUACAUAUUCUAGAGAUCGUCCUGAGUGCCAAGCACGUUUAUAAGCCGGGCGUGUAUUCCAGUCCUUUCUGUCAUUCUGUGUGUGUGUGUGUGUGCACUUAUG | 0.376 ratio |
| AAUGAAGGAACACUGGAUGAUUUUACAGUUAUAAACAGACGCAAAAAGGUAGCCAGCAAUGCCGCAUCAGCAGUGAAAAGGCCAUUUCAUUUCAUGGCAAAUUUUCCUUGUCCACCAUCA | 0.209 ratio |
| CCUUGGCAGCCAUUUCUCCCAGCAGUUUUAAAGGAUGAACAUUGGAUUUCAUGCCAUCCCACCGAAAACCUGUUUUAAAAUUUUAGGGAUCUUUACUUGGUCAUACAUGAAAAGUACACU | 0.551 ratio |
| AAUCUCUGCAAGCUCAUGAAGGAGAUCUUGGACAAGAAGGUUGAAAAGGUGACAAUCUCCAACCGGCUUGUGUCUUCACCCUGCUGCAUUGUGACAAGCACCUAUGGCUGGACAGCCAAC | 0.127 ratio |
| AGCGUUCAGGAAUUCAUGACCUUCACGAGUCAACUGAUUGUGGAGCGCUCAUCGAAAGGCACCCGAGCUUCUGUCAAAGAACAAGACUAUCUGUGCCACGUCUACGUCCGGAAUGAUAGU | 0.0363 ratio |
| CAUGCAUUUUAUUGGGGAGGGGAGGUCAGAAUAAUUCACCCAAAUCUAGUGGUCUUAUUUCACCGGCUAAUCUGGUUUAUAUUUGCAUUAAAGAUACUGGAGGGCAAUAUUUACAGAGUU | 0.927 ratio |
| GACGUUAAAAAUUUUCUGUAUGCCUGGUGUGGCAAAAGGAAGAUGACCCCAUCCUAUGAAAUCCGAGCAGUGGGGAACAAAAACAGGCAGAAAUUCAUGUGUGAGGUUCAGGUGGAAGGU | 0.299 ratio |

Block 2
Target: Prothrombin, mature alpha-thrombin (F2, Homo sapiens, UniProt P00734)
Method: aptamer microarray, sandwich
Form: DNA with 2'F-ANA
Sample: in vitro
Tested at: 200 nM
Setting: whole 15-mer aptamer, many near background
Added: Cy3 exosite-II aptamer, 400 nM
Direction: higher = stronger binding
Strand: GGTTGGTGTGGTTGG
| Modification | mean fluorescence intensity [a.u.] |
| --- | --- |
| 2'F-ANA at 2 3 4 7 8 11 15 | 596 |
| 2'F-ANA at 1 3 5 6 7 8 10 12 13 | 48.1 |
| 2'F-ANA at 3 4 6 9 11 12 13 | 562 |
| 2'F-ANA at 1 2 3 7 8 9 11 | 235 |
| 2'F-ANA at 3 4 5 6 9 10 13 15 | 72.6 |
| 2'F-ANA at 1 2 3 5 7 8 9 12 13 14 15 | 51.2 |
| 2'F-ANA at 2 6 10 13 | 106 |
| 2'F-ANA at 1 3 5 7 11 12 | 105 |
| 2'F-ANA at 3 4 9 10 11 12 15 | 351 |
| 2'F-ANA at 1 3 4 12 14 | 89.8 |
| 2'F-ANA at 1 2 5 7 13 | 64.5 |
| 2'F-ANA at 1 2 7 9 10 12 15 | 75.3 |
| 2'F-ANA at 2 4 5 7 8 9 10 11 12 | 50.5 |
| 2'F-ANA at 1 3 4 5 6 7 9 11 12 14 15 | 47.4 |
| 2'F-ANA at 3 4 5 8 11 12 13 15 | 115 |
| 2'F-ANA at 2 3 5 6 7 8 10 12 14 | 91.7 |
| 2'F-ANA at 2 3 5 7 8 9 13 14 15 | 64.9 |
| 2'F-ANA at 4 5 10 13 14 | 39.7 |
| 2'F-ANA at 3 4 7 8 9 11 12 13 14 | 340 |
| 2'F-ANA at 1 2 4 7 9 12 15 | 284 |
| 2'F-ANA at 1 2 3 4 5 8 10 14 15 | 55 |
| 2'F-ANA at 1 2 3 4 7 8 10 11 15 | 62.4 |

Block 3
Target: Histone acetyltransferase KAT6A, winged helix 2, GST fusion (KAT6A, Homo sapiens, UniProt Q92794, residues 85-181)
Method: protein binding microarray
Form: double-stranded DNA, one strand shown
Sample: in vitro
Tested at: not given
Setting: 8-mer, flanks averaged, mean of 2 arrays, mostly near background
Reference: not given
Direction: higher = stronger binding
Construct (chain): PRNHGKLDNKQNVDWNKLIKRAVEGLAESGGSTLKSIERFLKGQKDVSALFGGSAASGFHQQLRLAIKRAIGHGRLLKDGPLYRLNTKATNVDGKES
| Strand | E-score |
| --- | --- |
| GTAAATCA | 0.0561 |
| CTGCCGGA | 0.218 |
| ATGTCAAT | -0.0147 |
| CTAACCCC | -0.174 |
| ATTAGTTG | 0.068 |
| GGATGTTA | -0.0365 |
| ACCCCGGG | 0.14 |
| AAGTATGA | -0.118 |
| CGCTTTTC | 0.0894 |
| AGTGTAAC | 0.00274 |
| GGCCCAAA | 0.191 |
| CGGAACAA | 0.152 |
| AGCCCTAT | -0.0968 |
| TACGTCAA | -0.249 |
| CTGGACAC | -0.0407 |
| AGCGGATA | 0.106 |
| ACCGTTAG | -0.0868 |
| ACGCATAC | 0.0298 |
| AGAATCCA | -0.0363 |
| ATAGTAAT | 0.0631 |
| ACCCCGGA | 0.111 |

Block 4
Target: RNA binding protein fox-1 homolog 2, RRM domain, GST-SBP tag (RBFOX2, Homo sapiens, UniProt O43251-10, residues 100-194)
Method: RNA Bind-n-Seq
Form: RNA
Sample: in vitro
Tested at: 365 nM
Setting: natural RNA segment, single round, ends assumed
Reference: no-protein control
Direction: higher = stronger binding
Shared flanks, not repeated: GGGAGUUCUACAGUCCGACGAUC … UGGAAUUCUCGGGUGCCAA
| Strand | RBNS enrichment (R) |
| --- | --- |
| AGGAGGAAAAACAGACAAAAACAGCCUCACAGAAGAAUAUGACAGCUGUCCCUGUCACCAAGCUCACAGUUCCUCGCCCUGGGUCUAAGGGGUUGGUUGAGGUGGAAGCC | 0.384 |
| UCUUGGUGGCUUUGAGGACAUUCUGGAAAAUGCCACUGACCAGUGUGAACAAAAGGGAUGUGUUAUGGGGCUGGAGGUGUGAUUAGGUAGGAGGGAAACUGUUGGACCGA | 1.38 |
| GGCCCUCGGGCCACUUGGUGGAAGGACCCUAAGCACACUGUUCAUGAAGAACACAGGGAUAAAGCAAAGGCCAUCAUGCCGCAGACUGGAGCCACCUGGAAGCCACUCCA | 0.377 |
| UAGAAGUCCCCCUUGAAUGACCCCCAGAGCCCCUCUGAGAAGGGCUGGAGUUUGGGGGAAGGGGAUGGCUGGAUGUGCUCCAGGCCAUGCUGGAGGUACCCCCGAGGCAC | 1.4 |
| UCAAGAAGAUUAAAAAACUGAUGCUUUUUUGGGAUGGAAUUGGACACAGCCCAAGGAGGAAAUGAUCACAGCUGGGGUUGAAGGCUUCACCUGCACAUCACUGCACAGAC | 0.684 |
| AAGUGCCUCCCUCCCUCCUCCUCUUUACUGAAACUGAAACCAAAGCGUUCACAGUUAGAUUUUCACCUCGUGCCACUCUCUUUUGGGGUCUGGCUUGAGCAUCUAUGGGC | 0.594 |
| AAAUGUACUAGCUAAAAAUGGAUACACAAUGAAGAAUUCUAUUUGGCUAAUUAAGAAUGAUAUACUAUGUACACCCAAUAAGCUGUACUAGAAUGAAUAAAUUACUGAUA | 0.648 |
| CGAGUGGUUGGUCUGAAGUCCUUGCAAGACGCUGAUGCUCAAGCUGUUGACAUACUCAUUGCCUACUUUAACACCUGUCAGAGAAACGUGAUAUGGGGUAAGGAGGUGCU | 0.756 |
| UUUUGUUUUUUUAAAGAAAAAGAAAAAUGAGAAGAAAAAAAUAAAAGCUCCAGCGUCUUUCUUAUAAAUAGCCCUUUAUUGCGAUAUUUUCCUCCUUCUGGACAACCGCG | 0.581 |
| CCUUAGGAUGACCUAAGGGGAGGACCCCGUACCCCAUCACCGGAGAGCCUGCAUUUCCCUGCUAUUGUAGGGAUUCCUACUGGGAGACCUCGAGGGGUAGCUGUCUCCUG | 0.769 |
| UGUGGGAUCAGGGGACUGGAGUCACUGUGUCUACACCACCAGCUUCUAGAGGAAUUUGGUCUAUGCUUGUCCACCAGGCUACCAGCUAGGGCUCUAGAGAAAGCAGCUAG | 0.917 |
| UUCCCAUGGCACUUCACCAGCCAGGGAGGCCCUGGGUGCUGGCAGCACAGGAGAGUCCUGUGUGUAGUGAGGGUUUUCCAUGAUCUAUUCUUGCAGUUUUUUUGGUAAUA | 0.564 |

For quick reference, copied from above (block 2):
| Modification | mean fluorescence intensity [a.u.] |
| --- | --- |
| 2'F-ANA at 2 3 4 7 8 11 15 | 596 |
| 2'F-ANA at 1 3 5 6 7 8 10 12 13 | 48.1 |
| 2'F-ANA at 3 4 6 9 11 12 13 | 562 |
| 2'F-ANA at 1 2 3 7 8 9 11 | 235 |
| 2'F-ANA at 3 4 5 6 9 10 13 15 | 72.6 |
| 2'F-ANA at 1 2 3 5 7 8 9 12 13 14 15 | 51.2 |
| 2'F-ANA at 2 6 10 13 | 106 |
| 2'F-ANA at 1 3 5 7 11 12 | 105 |
| 2'F-ANA at 3 4 9 10 11 12 15 | 351 |
